Experimental data of several laboratories.
Each line is one published result; not all experiments were run side by side. Values joined by “and” are separate records of one study, mostly repeats; a detail may differ. ± marks the error that the study gave.
Chain of UniProt P00374 (whole entry, looked up): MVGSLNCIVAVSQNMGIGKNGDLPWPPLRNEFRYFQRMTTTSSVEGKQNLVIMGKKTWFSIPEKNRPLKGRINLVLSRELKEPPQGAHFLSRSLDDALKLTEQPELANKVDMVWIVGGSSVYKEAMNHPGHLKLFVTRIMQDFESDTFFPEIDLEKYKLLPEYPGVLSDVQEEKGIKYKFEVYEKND
Chain of UniProt P10275 (whole entry, looked up): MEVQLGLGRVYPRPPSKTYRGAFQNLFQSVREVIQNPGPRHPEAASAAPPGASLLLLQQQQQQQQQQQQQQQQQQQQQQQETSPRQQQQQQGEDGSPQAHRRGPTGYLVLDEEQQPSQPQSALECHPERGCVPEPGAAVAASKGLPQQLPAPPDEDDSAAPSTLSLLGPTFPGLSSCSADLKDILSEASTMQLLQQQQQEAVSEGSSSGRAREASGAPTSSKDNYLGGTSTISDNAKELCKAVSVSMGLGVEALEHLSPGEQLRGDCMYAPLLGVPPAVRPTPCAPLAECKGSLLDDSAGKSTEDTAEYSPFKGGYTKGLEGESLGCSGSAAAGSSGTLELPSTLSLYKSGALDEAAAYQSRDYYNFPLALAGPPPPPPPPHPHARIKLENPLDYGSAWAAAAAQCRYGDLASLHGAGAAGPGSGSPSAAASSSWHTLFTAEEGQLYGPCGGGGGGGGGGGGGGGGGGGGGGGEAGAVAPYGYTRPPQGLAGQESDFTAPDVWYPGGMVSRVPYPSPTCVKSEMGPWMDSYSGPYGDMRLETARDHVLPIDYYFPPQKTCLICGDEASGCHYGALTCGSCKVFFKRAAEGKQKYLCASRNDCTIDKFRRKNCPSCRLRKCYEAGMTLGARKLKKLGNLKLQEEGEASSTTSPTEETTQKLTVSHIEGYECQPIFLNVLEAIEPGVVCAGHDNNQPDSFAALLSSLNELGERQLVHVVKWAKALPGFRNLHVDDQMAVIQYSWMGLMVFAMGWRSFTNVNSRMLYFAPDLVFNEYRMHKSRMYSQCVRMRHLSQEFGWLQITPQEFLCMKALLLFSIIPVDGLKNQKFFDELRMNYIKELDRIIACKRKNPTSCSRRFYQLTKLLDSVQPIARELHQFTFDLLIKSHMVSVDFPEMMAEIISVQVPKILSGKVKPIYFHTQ
Chain of UniProt P0A6Y8 (whole entry, looked up): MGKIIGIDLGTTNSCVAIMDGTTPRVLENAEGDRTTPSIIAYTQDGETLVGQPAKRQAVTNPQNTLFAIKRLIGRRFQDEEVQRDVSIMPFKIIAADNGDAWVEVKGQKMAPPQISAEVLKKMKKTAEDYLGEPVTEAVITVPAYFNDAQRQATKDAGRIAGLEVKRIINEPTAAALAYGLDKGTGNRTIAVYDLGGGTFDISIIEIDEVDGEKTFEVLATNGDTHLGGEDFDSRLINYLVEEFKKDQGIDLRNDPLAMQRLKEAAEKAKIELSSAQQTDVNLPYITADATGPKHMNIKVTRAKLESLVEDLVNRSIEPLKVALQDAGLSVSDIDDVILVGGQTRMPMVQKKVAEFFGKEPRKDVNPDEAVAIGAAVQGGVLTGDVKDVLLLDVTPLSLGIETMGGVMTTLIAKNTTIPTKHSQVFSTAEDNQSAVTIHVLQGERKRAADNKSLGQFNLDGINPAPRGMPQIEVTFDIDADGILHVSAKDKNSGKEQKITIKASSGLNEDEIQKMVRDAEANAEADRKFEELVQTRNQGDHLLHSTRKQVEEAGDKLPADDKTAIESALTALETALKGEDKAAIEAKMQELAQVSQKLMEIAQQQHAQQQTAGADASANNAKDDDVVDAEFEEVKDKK
Chain of UniProt Q9UBN7 (whole entry, looked up): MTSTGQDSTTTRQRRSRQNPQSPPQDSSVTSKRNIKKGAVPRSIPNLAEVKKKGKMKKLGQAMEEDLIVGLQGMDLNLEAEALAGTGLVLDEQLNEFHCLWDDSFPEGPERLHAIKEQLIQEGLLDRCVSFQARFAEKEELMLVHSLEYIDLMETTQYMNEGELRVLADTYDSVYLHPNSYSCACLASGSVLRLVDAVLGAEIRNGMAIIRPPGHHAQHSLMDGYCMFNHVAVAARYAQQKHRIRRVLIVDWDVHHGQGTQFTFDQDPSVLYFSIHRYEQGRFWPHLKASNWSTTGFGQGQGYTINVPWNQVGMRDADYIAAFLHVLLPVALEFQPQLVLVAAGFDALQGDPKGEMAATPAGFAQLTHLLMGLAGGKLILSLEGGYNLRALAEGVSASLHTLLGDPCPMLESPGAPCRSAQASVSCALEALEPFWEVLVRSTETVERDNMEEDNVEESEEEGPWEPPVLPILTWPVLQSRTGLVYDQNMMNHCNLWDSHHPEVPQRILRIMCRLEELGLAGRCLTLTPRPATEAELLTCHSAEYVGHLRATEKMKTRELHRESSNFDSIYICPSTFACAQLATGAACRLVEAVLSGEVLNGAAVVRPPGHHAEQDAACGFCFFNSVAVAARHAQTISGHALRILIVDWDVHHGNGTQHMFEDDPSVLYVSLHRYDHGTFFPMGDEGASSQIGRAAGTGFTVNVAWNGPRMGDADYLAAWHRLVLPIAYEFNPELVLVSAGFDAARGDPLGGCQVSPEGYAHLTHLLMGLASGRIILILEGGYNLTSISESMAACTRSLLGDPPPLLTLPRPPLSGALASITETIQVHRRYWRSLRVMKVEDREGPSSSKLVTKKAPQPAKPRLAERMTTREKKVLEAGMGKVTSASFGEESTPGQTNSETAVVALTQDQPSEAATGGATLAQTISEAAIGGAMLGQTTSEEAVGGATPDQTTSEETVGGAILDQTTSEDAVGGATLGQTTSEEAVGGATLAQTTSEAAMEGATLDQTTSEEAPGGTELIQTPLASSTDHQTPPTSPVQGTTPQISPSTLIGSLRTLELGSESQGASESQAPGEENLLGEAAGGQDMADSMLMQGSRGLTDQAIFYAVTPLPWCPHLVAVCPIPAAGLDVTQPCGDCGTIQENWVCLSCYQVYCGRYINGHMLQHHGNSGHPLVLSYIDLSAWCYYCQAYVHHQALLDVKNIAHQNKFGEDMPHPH
Chain of UniProt P29992 (whole entry, looked up): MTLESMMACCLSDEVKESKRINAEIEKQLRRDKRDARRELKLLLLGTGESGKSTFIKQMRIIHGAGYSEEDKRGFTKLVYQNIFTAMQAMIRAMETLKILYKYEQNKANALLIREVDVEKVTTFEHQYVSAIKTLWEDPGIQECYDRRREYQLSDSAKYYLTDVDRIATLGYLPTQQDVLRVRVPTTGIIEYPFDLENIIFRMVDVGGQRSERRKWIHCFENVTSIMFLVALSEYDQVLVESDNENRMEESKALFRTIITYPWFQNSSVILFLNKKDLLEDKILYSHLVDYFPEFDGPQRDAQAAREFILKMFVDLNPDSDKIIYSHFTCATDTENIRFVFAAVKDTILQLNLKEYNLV
Chain of UniProt P49841 (whole entry, looked up): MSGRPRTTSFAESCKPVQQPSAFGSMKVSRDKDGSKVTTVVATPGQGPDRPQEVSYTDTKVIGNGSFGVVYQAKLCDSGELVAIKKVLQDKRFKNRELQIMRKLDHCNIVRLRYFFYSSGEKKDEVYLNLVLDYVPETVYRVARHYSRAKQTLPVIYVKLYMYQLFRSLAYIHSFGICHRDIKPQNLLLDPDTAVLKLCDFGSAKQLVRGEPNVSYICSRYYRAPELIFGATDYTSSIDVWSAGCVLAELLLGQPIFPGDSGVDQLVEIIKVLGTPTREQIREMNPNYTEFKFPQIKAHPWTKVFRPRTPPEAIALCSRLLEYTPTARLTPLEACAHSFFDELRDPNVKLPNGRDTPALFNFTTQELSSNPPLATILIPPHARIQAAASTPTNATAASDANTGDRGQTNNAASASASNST
Chain of UniProt Q9BY41 (whole entry, looked up): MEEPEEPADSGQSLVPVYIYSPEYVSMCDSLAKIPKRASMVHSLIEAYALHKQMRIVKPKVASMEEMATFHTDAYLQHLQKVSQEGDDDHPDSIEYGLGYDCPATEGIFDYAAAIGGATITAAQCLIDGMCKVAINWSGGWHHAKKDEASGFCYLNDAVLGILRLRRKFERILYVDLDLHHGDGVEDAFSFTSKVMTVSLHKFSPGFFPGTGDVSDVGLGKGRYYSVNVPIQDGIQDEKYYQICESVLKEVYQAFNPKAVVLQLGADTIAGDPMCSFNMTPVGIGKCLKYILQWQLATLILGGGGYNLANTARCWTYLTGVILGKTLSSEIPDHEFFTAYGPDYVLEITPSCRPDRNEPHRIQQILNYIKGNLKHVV
Chain of UniProt P05181 (whole entry, looked up): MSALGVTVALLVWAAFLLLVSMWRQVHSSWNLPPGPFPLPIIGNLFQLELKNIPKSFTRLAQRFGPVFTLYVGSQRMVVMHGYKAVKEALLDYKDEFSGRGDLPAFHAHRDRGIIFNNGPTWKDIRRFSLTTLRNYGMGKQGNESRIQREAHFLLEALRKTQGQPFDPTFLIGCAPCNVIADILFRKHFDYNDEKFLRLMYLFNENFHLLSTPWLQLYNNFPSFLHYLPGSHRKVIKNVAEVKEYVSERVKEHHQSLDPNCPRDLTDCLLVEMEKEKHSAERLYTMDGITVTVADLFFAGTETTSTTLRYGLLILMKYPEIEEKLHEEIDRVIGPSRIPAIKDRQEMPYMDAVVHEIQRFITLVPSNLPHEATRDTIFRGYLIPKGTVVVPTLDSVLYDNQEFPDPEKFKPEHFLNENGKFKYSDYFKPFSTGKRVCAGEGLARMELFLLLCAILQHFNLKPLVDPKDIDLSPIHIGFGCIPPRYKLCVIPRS
Chain of UniProt P32247 (whole entry, looked up): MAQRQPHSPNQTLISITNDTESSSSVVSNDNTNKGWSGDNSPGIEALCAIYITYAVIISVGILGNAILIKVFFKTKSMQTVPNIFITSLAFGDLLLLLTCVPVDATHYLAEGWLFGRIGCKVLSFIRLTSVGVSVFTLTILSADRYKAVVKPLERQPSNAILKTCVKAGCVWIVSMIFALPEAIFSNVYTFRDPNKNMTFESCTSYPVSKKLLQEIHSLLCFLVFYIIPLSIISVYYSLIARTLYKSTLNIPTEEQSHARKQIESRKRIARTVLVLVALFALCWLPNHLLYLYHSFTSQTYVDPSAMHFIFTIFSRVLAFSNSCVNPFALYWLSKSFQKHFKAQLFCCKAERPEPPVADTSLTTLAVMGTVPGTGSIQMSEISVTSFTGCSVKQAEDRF

CCN(CC)c1ccc(/C=C/C(=O)C(c2ccccc2)c2ccccc2)cc1
IC50 (PTGS1 (Ovis aries, UniProt P05979); enzyme activity, inhibitor, ELISA): 29500 nM

CC(C)=CCCC1(C)C=Cc2c(ccc3cc(-c4cc(O)cc(O)c4CC=C(C)C)oc23)O1 (stereo not shown)
IC50 (GSK3B (Homo sapiens, UniProt P49841); enzyme activity, inhibitor): 6360 nM

CC[C@@H]1C(=O)N(C)c2cnc(Nc3ccc(C(=O)NCCCC[C@H](NC(=O)COCCOCCNC(=O)COCCOCCNC(=O)COCCOCCNC(=O)COCCOCCNC(=O)[C@@H](NC(=O)[C@H](CO)NC(=O)[C@H](Cc4cncn4CCCCCCCCc4ccccc4)NC(=O)[C@H](CC(C)C)NC(=O)[C@@H]4CCCN4C(C)=O)[C@@H](C)OP(=O)(O)O)C(N)=O)cc3OC)nc2N1C1CCCC1
IC50 (CAMKK2 (Homo sapiens, UniProt Q96RR4); enzyme activity, inhibitor): 170 nM

NC1=NC2(CCCCC2)N(c2ccc(OCc3cn(CCCCOc4ccc(CCC(=O)O)c(O)c4)nn3)cc2)C(N)=N1
IC50 (DHFR (Homo sapiens, UniProt P00374); enzyme activity, inhibitor): 1730 nM and 1700 nM

C=CCOCC=C
IC50 (Cytochrome P450 2E1 (CYP2E1, Homo sapiens, UniProt P05181); enzyme activity, inhibitor; 1 h, pH 7.4): 6300 nM

C=C1C(=O)N[C@@H](C)C(=O)N(C)[C@@H](C)C(=O)N[C@@H]([C@H](OC(=O)[C@@H](NC(C)=O)[C@H](O)C(C)C)C(C)C)C(=O)N(C)[C@@H]([C@@H](C)OC)C(=O)O[C@H](C)[C@H](NC(C)=O)C(=O)O[C@H](Cc2ccccc2)C(=O)N1C
IC50 (Guanine nucleotide-binding protein subunit alpha-11 (Homo sapiens, UniProt P29992); inverse agonist, item: IP1; HEK293 with wild-type Gα11; 30 min, basal): 6.31 nM

CC(=O)Nc1ccc(S(=O)(=O)N2CCN(c3nc4ccc(Cl)cc4o3)CC[C@H]2C)cc1
IC50 (HCRTR2 (Homo sapiens, UniProt O43614); calcium signal, antagonist, fluorescence): 2050 nM

CC[C@H](C)[C@H](NC(=O)[C@H](Cc1ccccc1)NC(=O)[C@H](CCN)NC(=O)[C@H](CCCNC(=N)N)NC(=O)[C@H](Cc1ccccc1)NC(=O)[C@H](Cc1ccccc1)NC(=O)[C@H](CCCN)NC(=O)[C@H](CO)NC(=O)[C@H](CC(C)C)NC(=O)[C@H](CCCNC(=N)N)NC(=O)[C@H](CCSC)NC(=O)[C@H](C)N)C(=O)N[C@@H](CC(C)C)C(=O)N[C@@H](CCC(N)=O)C(=O)N[C@@H](CCCNC(=N)N)C(=O)N[C@@H](CCCCN)C(=O)N[C@@H](CCCCN)C(=O)O
IC50 (histidine kinase ComD (Streptococcus pneumoniae serotype 4, UniProt A0A0H2US84); Streptococcus pneumoniae cells, Streptococcus pneumoniae): > 1000 nM

Cn1nc(-c2ccc3ccccc3c2)cc1[C@H]1CN2CC[C@@H]1C[C@@H]2CNCc1ccco1
IC50 (DNA topoisomerase 2-binding protein 1, BRCT7-8 domains (TOPBP1, Homo sapiens, UniProt Q92547); inhibitor, streptavidin pulldown, immunoblotting): 20 nM

CC[C@H](C)[C@H](NC(=O)[C@H](CCCNC(=N)N)NC(=O)[C@H](CCCNC(=N)N)NC(=O)[C@@H]1CCCN1C(=O)[C@@H]1CCCN1C(=O)[C@H](CCCNC(=N)N)NC(=O)[C@@H]1CCCN1C(=O)[C@H](CCCNC(=N)N)NC(=O)[C@@H]1CCCN1C(=O)[C@H](CC(C)C)NC(=O)[C@H](Cc1ccc(O)cc1)NC(=O)[C@@H]1CCCN1C(=O)[C@@H]1CCCN1C(=O)[C@H](CCCCN)NC(=O)[C@H](CC(=O)O)NC(=O)[C@@H](NC(=O)c1cn(C2CC2)c2cc(N3CCNCC3)c(F)cc2c1=O)C(C)C)C(=O)N[C@@H](Cc1ccc(O)cc1)C(=O)N[C@@H](CC(N)=O)C(=O)N[C@@H](CCCNC(=N)N)C(N)=O
IC50 (dnaK (Escherichia coli, UniProt P0A6Y8); ligand displacement, FP; pH 7.5): 1010 nM

CC[C@H](C)[C@@H]1NC(=O)[C@H](Cc2ccccc2)NC(=O)[C@H](CC(=O)O)NC(=O)[C@@H](NC(C)=O)CSC(=O)[C@H](CCSC)NC1=O
IC50 (Accessory gene regulator protein C (Staphylococcus aureus, UniProt O33590)): 516 nM

CSCC[C@H](NC(=O)[C@H](CC(C)C)NC(=O)[C@H](Cc1cnc[nH]1)NC(=O)CNC(=O)[C@@H](NC(=O)[C@H](C)NC(=O)[C@H](Cc1c[nH]c2ccccc12)NC(=O)[C@H](CCC(N)=O)NC(=O)[C@H](N)Cc1ccccc1)C(C)C)C(N)=O
IC50 (BRS3 (Homo sapiens, UniProt P32247); human GRPR activity, cell-based): > 3000 nM

COC(=O)c1ccccc1CN(CCC(C)C)c1nc(C#N)nc(N2CCOCC2)n1
IC50 (CPL (Toxoplasma gondii, UniProt Q6DMN0); enzyme activity, inhibitor, Z-L-R-AMC hydrolysis fluorescence): 123 nM

CSCC[C@H](NC(=O)[C@H](Cc1ccccc1)NC(=O)[C@H](Cc1cnc[nH]1)NC(=O)CNC(=O)[C@@H](NC(=O)[C@H](C)NC(=O)[C@H](Cc1c[nH]c2ccccc12)NC(=O)[C@H](CC(C)C)NC(=O)[C@H](CC(N)=O)NC(=O)CN)[C@@H](C)O)C(N)=O
IC50 (Gastrin-releasing peptide receptor (Rattus norvegicus, UniProt P52500); cells, rat): 52 ± 2 nM

O=C[C@H](C[C@H]1CCNC1=O)NC(=O)[C@H](CC1CCCCC1)NC(=O)OCc1cccc(Cl)c1
IC50 (Genome polyprotein, 3C protease (Human enterovirus D68, UniProt Q68T42); 3C protease activity, inhibitor, FRET): 55 ± 10 nM

CC(C)C[C@@H]1NC(=O)[C@H](Cc2ccc(O)cc2)NC(=O)[C@H](CC(N)=O)NC(=O)[C@H](CO)NC(=O)[C@@H](NC(=O)[C@@H]2CCCN2C(=O)[C@H](CC(N)=O)NC(=O)[C@H](Cc2ccc(O)cc2)NC(=O)[C@@H](N)CCCCN)CSC1=O
IC50 (Accessory gene regulator protein C (Staphylococcus epidermidis, UniProt O86861)): 2.84 nM

Clc1ccc(C(c2ccc(Cl)cc2)C(Cl)Cl)cc1
IC50 (Abcb1a (Mus musculus, UniProt P21447, N83Q/N87Q/N90Q); ATPase activity, inhibitor; purified recombinant protein; 5 min, pH 7.5, with: verapamil 100 µM): 72500 nM

CCCCC[C@@H]1OC(=O)[C@@H](C)N(C)C(=O)[C@H](CCCCC)OC(=O)[C@@H](C)N(C)C(=O)[C@H](CCCCC)OC(=O)[C@@H](C)N(C)C(=O)[C@H](CCCCC)OC(=O)[C@@H](C)N(C)C1=O
IC50 (ryanodine receptor 2 (Sus scrofa, UniProt A0A5G2R1W3); channel open probability, inhibitor, lipid bilayer single-channel; +40 mV, with: 0.1 µM Ca2+, 2 mM ATP): ~200 nM

CC(=O)N[C@H](Cc1ccc2ccccc2c1)C(=O)N[C@](C)(Cc1ccc(Cl)cc1)C(=O)N[C@H](Cc1c[nH]c2ccccc12)C(=O)N[C@@H](CO)C(=O)N[C@@H](CCCCNC(C)C)C(=O)N[C@H](Cc1ccc(O)cc1)C(=O)N[C@@H](CC(C)C)C(=O)N[C@@H](CCCNC(=N)N)C(=O)N1CCC[C@H]1C(=O)N[C@H](C)C(N)=O
IC50 (Gonadotropin-releasing hormone receptor III (Gallus gallus, UniProt Q5EFE0); inositol phosphate production, antagonist; COS-7 transfected; with: GnRH-II 1 nM): 351 ± 114 nM

O=C1c2ccccc2[Se](=O)N1c1ccccc1 (stereo not shown)
IC50 (HDAC6 (Homo sapiens, UniProt Q9UBN7); enzyme activity, inhibitor, fluorescence): 2980 nM

C=CCCC[C@](C)(N)C(=O)N[C@@H](C)C(=O)N[C@@H](Cc1ccc(O)cc1)C(=O)N[C@@H](Cc1ccccc1)C(=O)N[C@@](C)(CCCC=C)C(=O)N[C@@H](CC(C)C)C(=O)N[C@@H](CCCCN)C(=O)N[C@@H](CC(C)C)C(=O)N[C@@H](C)C(=O)NCC(=O)N[C@@H](CCCNC(=N)N)C(=O)N[C@@H](Cc1c[nH]c2ccccc12)C(N)=O
IC50 (PC4 and SFRS1-interacting protein, with HIV integrase (Homo sapiens, UniProt O75475); LEDGF/p75-integrase interaction, inhibitor): 26000 nM

COC(=O)C1CN1S(=O)(=O)c1ccc(C(C)(C)C)cc1 (stereo not shown)
IC50 (Protein disulfide-isomerase, a domain (P4HB, Homo sapiens, UniProt P07237); insulin reduction, inhibitor, insulin turbidity): 1100 ± 50 nM

CC(=O)N[C@@H](CC(C)C)C(=O)N[C@@H](CCC(=O)O)C(=O)N[C@@H](CO)C(=O)N[C@@H](CC(=O)O)C(=O)CCl
IC50 (Caspase-9 (CASP9, Homo sapiens, UniProt P55211); enzyme activity, inhibitor, fluorescence): 12100 nM

CCCCCCOc1ccc(Nc2ccccc2C(=O)O)cc1
IC50 (Androgen receptor (AR, Homo sapiens, UniProt P10275); reporter gene, antagonist, MMTV-Luc reporter; MDA-kb2; 20 h, with: 8 nM DHT (EC90)): > 100000 nM

O=C(CCCCCCC(=O)Nc1cccc(N=Nc2ccccc2)c1)NO
IC50 (HDAC8 (Homo sapiens, UniProt Q9BY41); enzyme activity, inhibitor; trans isomer): 125 ± 25 nM

For quick reference, copied from above:
CC(=O)N[C@H](Cc1ccc2ccccc2c1)C(=O)N[C@](C)(Cc1ccc(Cl)cc1)C(=O)N[C@H](Cc1c[nH]c2ccccc12)C(=O)N[C@@H](CO)C(=O)N[C@@H](CCCCNC(C)C)C(=O)N[C@H](Cc1ccc(O)cc1)C(=O)N[C@@H](CC(C)C)C(=O)N[C@@H](CCCNC(=N)N)C(=O)N1CCC[C@H]1C(=O)N[C@H](C)C(N)=O
IC50 (Gonadotropin-releasing hormone receptor III (Gallus gallus, UniProt Q5EFE0); inositol phosphate production, antagonist; COS-7 transfected; with: GnRH-II 1 nM): 351 ± 114 nM

CSCC[C@H](NC(=O)[C@H](CC(C)C)NC(=O)[C@H](Cc1cnc[nH]1)NC(=O)CNC(=O)[C@@H](NC(=O)[C@H](C)NC(=O)[C@H](Cc1c[nH]c2ccccc12)NC(=O)[C@H](CCC(N)=O)NC(=O)[C@H](N)Cc1ccccc1)C(C)C)C(N)=O
IC50 (BRS3 (Homo sapiens, UniProt P32247); human GRPR activity, cell-based): > 3000 nM

CC(C)=CCCC1(C)C=Cc2c(ccc3cc(-c4cc(O)cc(O)c4CC=C(C)C)oc23)O1 (stereo not shown)
IC50 (GSK3B (Homo sapiens, UniProt P49841); enzyme activity, inhibitor): 6360 nM
